Results gathered from unrelated publications.
Lines come from different studies, so protocols differ.

NS(=O)(=O)NCC(F)(F)c1ccccc1F
Papp (Caco-2): 50 ×10⁻⁶ cm/s

O=C(c1ccccc1)c1cc(O)c(-c2cc(Cl)cc(Cl)c2)c(O)c1
Papp (PAMPA; 18 h, pH 7.4): 9.55 ×10⁻⁶ cm/s

C/C=C/CNC(=N)NCCCCCCCCN1CCCCCCOc2ccccc2CNC(=N)NC1=O
Papp (PAMPA; 500 µM, 5 h, pH 7.4): < 0.01 ×10⁻⁶ cm/s

CCN(c1nc(N[C@H](CC(N)=O)C(=O)NC)nc(N2CCN(c3ccccc3C#N)CC2)n1)C1CCCCC1
Papp (PAMPA): 2.1 ×10⁻⁶ cm/s

CCOC(=O)c1cc2cc(-c3cc(C(=O)NCc4ccc(C(=O)O)cc4)nn3C)ccc2[nH]1
Papp (PAMPA): 3.3 ×10⁻⁶ cm/s

CC(C)(O)c1ccc(N2Cc3c(ccnc3-c3ccc(F)cc3OCC(F)(F)F)C2=O)cc1
Papp (PAMPA; pH 7.4): 24.7 ×10⁻⁶ cm/s

C/C=C/CNC(=N)NCCCCCCCCN1CCCc2ccc(F)cc2COc2ccccc2CNC(=N)NC1=O
Papp (PAMPA; 500 µM, 5 h, pH 7.4): < 0.01 ×10⁻⁶ cm/s

[2H]c1c(NS(C)(=O)=O)c([2H])c2c(C(=O)c3ccc(OCCCN(CCCC)CCCC)cc3)c(CCCC)oc2c1[2H]
Papp (PAMPA; 16 h, pH 7.4): 4.08 ×10⁻⁶ cm/s

O=C(NCc1ccc2c(c1)OCO2)c1ccnc(C(=O)NCc2ccc3c(c2)OCO3)c1
Papp (PAMPA): 0.3 ×10⁻⁶ cm/s

For quick reference, copied from above:
CC(C)(O)c1ccc(N2Cc3c(ccnc3-c3ccc(F)cc3OCC(F)(F)F)C2=O)cc1
Papp (PAMPA; pH 7.4): 24.7 ×10⁻⁶ cm/s
